Results pooled from the literature.
Several values in a cell are separate wells, animals, samples, runs or records. Numbers after ± are the reported error.

CC[C@H](C)[C@H](NC(=O)[C@H](CCCCN)NC(=O)CNC(=O)[C@H](CC(C)C)NC(=O)[C@H](Cc1ccccc1)NC(=O)[C@H](CCCCN)NC(=O)[C@H](CO)NC(=O)[C@H](Cc1ccccc1)NC(=O)[C@H](Cc1c[nH]c2ccccc12)NC(=O)[C@H](CCC(N)=O)NC(=O)[C@@H](NC(=O)[C@H](Cc1ccccc1)NC(=O)CCCCCNC(=O)CN1CCN(CC(=O)O)CCN(CC(=O)O)CCN(CC(=O)O)CC1)C(C)C)C(=O)N[C@@H](CCC(=O)O)C(=O)N1CCC[C@H]1C(=O)N[C@@H](CC(=O)O)C(=O)N[C@H](C(=O)N[C@@H](CO)C(=O)N[C@@H](CCC(N)=O)C(=O)N[C@H](C(=O)N[C@@H](CCC(N)=O)C(=O)N[C@@H](CC(=O)O)C(=O)N1CCC[C@H]1C(=O)N[C@@H](CC(N)=O)C(=O)N[C@@H](CC(=O)O)C(=O)N[C@@H](CCC(N)=O)C(=O)N[C@@H](Cc1ccc(O)cc1)C(=O)N[C@@H](CCC(=O)O)C(=O)N1CCC[C@H]1C(=O)N[C@@H](Cc1ccccc1)C(=O)O)C(C)C)C(C)C [copper-64 labelled] — tissue uptake (C57BL/6 mice, male, naive, brown fat; 0.5 h): 3.34 ± 0.4 %ID/g
CCN(CC)CCOc1ccc(-c2nnn(Cc3ccc(OC)cc3)c2N)cc1 — remaining compound (dog hepatocytes; concentration not given, time not given): 54%
CC(CCC(=O)NCC(=O)O)C1CCC2C3CCC4CC(OC5OC(C(=O)O)C(O)C(O)C5O)CCC4(C)C3CC(O)C12C (stereo not drawn) — plasma concentration (human men; dose not given, SLCO1B1 *14/*35): 109 ng/mL
O=C(c1cc(Cc2n[nH]c(=O)c3ccccc23)ccc1F)N1CC(CNC2CC2)C1 — Cmax (female Wistar Han rat; oral, 60 mg/kg, day 1): 14400 ng/mL
CN1Cc2cc(Cl)ccc2-n2c(nnc2C2CCN(c3cccc([18F])n3)CC2)C1 — tissue uptake (C57BL/6 mouse male, heart; intravenous, dose not given, 5 min, together with: blocking agent 10 mg/kg): 7.48 ± 2.23 %ID/g
C=Cc1c(C)c2cc3nc(c(CC(=O)[O-])c4[n-]c(cc5nc(cc1[n-]2)C(C)=C5CC)c(C)c4C(=O)[O-])C(CCC(=O)[O-])C3C.[Cu+2].[Na+].[Na+].[Na+] (stereo not drawn) — serum cholesterol (Wistar rat, male; oral, 500 mg/kg daily, 28 days): 42.8 ± 11.2 mg/dL
C[C@H](O)[C@@H](NC(=O)[C@H]1CCCN1C(=O)[C@@H](CCCCN)NC(=O)[C@@H](CO)NC(=O)[C@@H](Cc1ccc(O)cc1)NC(=O)[C@@H](CC(N)=O)NC(=O)CCOCCOCCOCCNC(=O)CN1CCN(CC(=O)O)CCN(CC(=O)O)CCN(CC(=O)O)CC1)C(=O)N[C@H](CC(=O)O)C(=O)N[C@H](CCCNC(=N)N)C(=O)N[C@H](CCC(N)=O)C(=O)N[C@H](Cc1ccc(O)cc1)C(=O)N[C@H](Cc1c[nH]cn1)C(=O)N[C@H](Cc1ccccc1)C(N)=O [gallium-68 labelled] — tissue uptake (BALB/c nude mice U-87 MG tumour, fat; intravenous, 1.85 MBq, 1 h, radiolabelled): 0.27 ± 0.07 %ID/g
O=C1NC2(CC2)COc2ncc(F)cc2[C@H]2COCCN2c2ccn3ncc1c3n2 — organ-to-body weight ratio (Sprague-Dawley rat, female, ovaries; oral, 20 mg/kg/day, 4 weeks, end of treatment): 0.041 ± 0.006%
CSCC[C@H](NC(=O)[C@@H](NC(=O)[C@H](CC(C)C)NC(=O)[C@@H](NC(=O)[C@H](Cc1c[nH]cn1)NC(=O)CCCCCNC(=O)[C@H](CCCNC(=N)N)NC(=O)[C@H](CCCNC(=N)N)NC(=O)[C@H](CCCNC(=N)N)NC(=O)[C@H](CCC(N)=O)NC(=O)[C@H](CCCNC(=N)N)NC(=O)[C@H](CCCNC(=N)N)NC(=O)[C@H](CCCCN)NC(=O)[C@H](CCCCN)NC(=O)[C@H](CCCNC(=N)N)NC(=O)CNC(=O)[C@@H](N)Cc1ccc(O)cc1)C(C)C)C(C)C)C(=O)N[C@@H](CS)C(=O)N[C@@H](C)C(=O)N[C@H](C(N)=O)[C@@H](C)O — bicarbonate (C57BL/6J mice; Alzet osmotic pump, 3 mg/kg, 8 weeks): 25 mmol/L and 27 mmol/L
CC(C(=O)O)n1nc(Cn2cc3cc(OCC[18F])c(Cl)cc3n2)c2ccccc2c1=O (racemic) — hydrophilic radiometabolite (HPLC; nonhuman primate, plasma; 5 min post-injection; reference: plasma radioactivity): 0%
CSCC[C@H](N)C(=O)N[C@@H](C)C(=O)N[C@@H](CCCNC(=N)N)C(=O)N[C@@H](CCCNC(=N)N)C(=O)N[C@@H](CC(=O)O)C(=O)N[C@@H](CCCCN)C(=O)N[C@H](C(=O)N[C@@H](CC(=O)O)C(=O)N[C@@H](Cc1ccccc1)C(=O)N[C@@H](C)C(=O)N[C@@H](CCCNC(=N)N)C(=O)N[C@@H](CCCNC(=N)N)C(=O)N[C@@H](CCCNC(=N)N)C(=O)N[C@@H](CCCNC(=N)N)C(=O)NCCCCCC(=O)NCCCCC(NC(=O)CCCCCNC(=O)[C@H](CCCNC(=N)N)NC(=O)[C@H](CCCNC(=N)N)NC(=O)[C@H](CCCNC(=N)N)NC(=O)[C@H](CCCNC(=N)N)NC(=O)[C@H](C)NC(=O)[C@H](Cc1ccccc1)NC(=O)[C@H](CC(=O)O)NC(=O)[C@@H](NC(=O)[C@H](CCCCN)NC(=O)[C@H](CC(=O)O)NC(=O)[C@H](CCCNC(=N)N)NC(=O)[C@H](CCCNC(=N)N)NC(=O)[C@H](C)NC(=O)[C@@H](N)CCSC)[C@@H](C)O)C(=O)NCCCCC(NC(=O)C(CCCCNC(=O)CCCCCNC(=O)[C@H](CCCNC(=N)N)NC(=O)[C@H](CCCNC(=N)N)NC(=O)[C@H](CCCNC(=N)N)NC(=O)[C@H](CCCNC(=N)N)NC(=O)[C@H](C)NC(=O)[C@H](Cc1ccccc1)NC(=O)[C@H](CC(=O)O)NC(=O)[C@@H](NC(=O)[C@H](CCCCN)NC(=O)[C@H](CC(=O)O)NC(=O)[C@H](CCCNC(=N)N)NC(=O)[C@H](CCCNC(=N)N)NC(=O)[C@H](C)NC(=O)[C@@H](N)CCSC)[C@@H](C)O)NC(=O)CCCCCNC(=O)[C@H](CCCNC(=N)N)NC(=O)[C@H](CCCNC(=N)N)NC(=O)[C@H](CCCNC(=N)N)NC(=O)[C@H](CCCNC(=N)N)NC(=O)[C@H](C)NC(=O)[C@H](Cc1ccccc1)NC(=O)[C@H](CC(=O)O)NC(=O)[C@@H](NC(=O)[C@H](CCCCN)NC(=O)[C@H](CC(=O)O)NC(=O)[C@H](CCCNC(=N)N)NC(=O)[C@H](CCCNC(=N)N)NC(=O)[C@H](C)NC(=O)[C@@H](N)CCSC)[C@@H](C)O)C(N)=O)[C@@H](C)O (stereo partly drawn) — tissue distribution (C57BL/6 mouse female, pancreas; dose not given, 6 h; reference: total): 0.52% and 1% and 1.29%
Cc1ccc(OCCN(C)C)cc1C(=O)N[C@H](C)c1cc(-c2cnn(C(F)F)c2)nc2ccccc12 — viability (Vero E6; 125 µM): -2.31% and -2.69%
CC(=O)NCC(=O)N[C@@H](Cc1ccc(O)cc1)C(=O)NCC(=O)N[C@@H](CO)C(=O)N[C@@H](CO)C(=O)N[C@@H](CO)C(=O)N[C@@H](CCCNC(=N)N)C(=O)N[C@@H](CCCNC(=N)N)C(=O)N[C@@H](C)C(=O)N1CCC[C@H]1C(=O)N[C@@H](CCC(N)=O)C(=O)N[C@H](C(=O)O)[C@@H](C)O — skin permeation (mouse skin; 24 h): < 1%
CCCC[C@H]1C(=O)N(C)[C@@H](CCCC)C(=O)N[C@@H](CCCNC(=O)CN2CCN(CC(=O)O)CCN(CC(=O)O)CCN(CC(=O)O)CC2)C(=O)N[C@H](C(=O)NCC(N)=O)CSCC(=O)N[C@@H](Cc2ccc(O)cc2)C(=O)N(C)[C@@H](C)C(=O)N[C@@H](CC(N)=O)C(=O)N2CCC[C@H]2C(=O)N[C@@H](Cc2c[nH]cn2)C(=O)N[C@@H](CC(C)C)C(=O)N(C)CC(=O)N[C@@H](Cc2c[nH]c3ccccc23)C(=O)N[C@@H](CO)C(=O)N[C@@H](Cc2c[nH]c3ccccc23)C(=O)N1C [gallium-68 labelled] — tissue-to-tissue ratio (NOD/SCID mice, CHO-hPD-L1 xenograft, tumour over muscle; iv, dose not given, 10 min; reference: tumour over muscle): 3.47 ± 1.02
Cc1ccc(N2CCN(C)[C@H](C)C2)cc1C(=O)N[C@H](C)c1cc(-c2cnn(C)c2)nc2ccccc12 — viability (African green monkey cells; 62.5 µM): 68.9%

For quick reference, copied from above:
CC(CCC(=O)NCC(=O)O)C1CCC2C3CCC4CC(OC5OC(C(=O)O)C(O)C(O)C5O)CCC4(C)C3CC(O)C12C (stereo not drawn) — plasma concentration (human men; dose not given, SLCO1B1 *14/*35): 109 ng/mL
O=C(c1cc(Cc2n[nH]c(=O)c3ccccc23)ccc1F)N1CC(CNC2CC2)C1 — Cmax (female Wistar Han rat; oral, 60 mg/kg, day 1): 14400 ng/mL
CN1Cc2cc(Cl)ccc2-n2c(nnc2C2CCN(c3cccc([18F])n3)CC2)C1 — tissue uptake (C57BL/6 mouse male, heart; intravenous, dose not given, 5 min, together with: blocking agent 10 mg/kg): 7.48 ± 2.23 %ID/g
